Published values pooled from the literature.
Each line is one published result; not all experiments were run side by side. Several values in a cell are separate wells, animals, samples, runs or records. ± gives the spread as reported.
Aryl hydrocarbon receptor: Aryl hydrocarbon receptor (Danio rerio, UniProt Q9YGV3)
UniProt P18669, sequence (whole entry, looked up): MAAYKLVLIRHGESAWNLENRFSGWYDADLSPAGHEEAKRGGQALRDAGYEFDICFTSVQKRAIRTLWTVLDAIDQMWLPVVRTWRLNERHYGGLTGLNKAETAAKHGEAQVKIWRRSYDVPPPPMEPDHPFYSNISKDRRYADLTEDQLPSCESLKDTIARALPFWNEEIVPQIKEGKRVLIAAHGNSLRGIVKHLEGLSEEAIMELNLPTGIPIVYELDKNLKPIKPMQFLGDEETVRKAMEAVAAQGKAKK
UniProt P00519, sequence (whole entry, unmodified, looked up): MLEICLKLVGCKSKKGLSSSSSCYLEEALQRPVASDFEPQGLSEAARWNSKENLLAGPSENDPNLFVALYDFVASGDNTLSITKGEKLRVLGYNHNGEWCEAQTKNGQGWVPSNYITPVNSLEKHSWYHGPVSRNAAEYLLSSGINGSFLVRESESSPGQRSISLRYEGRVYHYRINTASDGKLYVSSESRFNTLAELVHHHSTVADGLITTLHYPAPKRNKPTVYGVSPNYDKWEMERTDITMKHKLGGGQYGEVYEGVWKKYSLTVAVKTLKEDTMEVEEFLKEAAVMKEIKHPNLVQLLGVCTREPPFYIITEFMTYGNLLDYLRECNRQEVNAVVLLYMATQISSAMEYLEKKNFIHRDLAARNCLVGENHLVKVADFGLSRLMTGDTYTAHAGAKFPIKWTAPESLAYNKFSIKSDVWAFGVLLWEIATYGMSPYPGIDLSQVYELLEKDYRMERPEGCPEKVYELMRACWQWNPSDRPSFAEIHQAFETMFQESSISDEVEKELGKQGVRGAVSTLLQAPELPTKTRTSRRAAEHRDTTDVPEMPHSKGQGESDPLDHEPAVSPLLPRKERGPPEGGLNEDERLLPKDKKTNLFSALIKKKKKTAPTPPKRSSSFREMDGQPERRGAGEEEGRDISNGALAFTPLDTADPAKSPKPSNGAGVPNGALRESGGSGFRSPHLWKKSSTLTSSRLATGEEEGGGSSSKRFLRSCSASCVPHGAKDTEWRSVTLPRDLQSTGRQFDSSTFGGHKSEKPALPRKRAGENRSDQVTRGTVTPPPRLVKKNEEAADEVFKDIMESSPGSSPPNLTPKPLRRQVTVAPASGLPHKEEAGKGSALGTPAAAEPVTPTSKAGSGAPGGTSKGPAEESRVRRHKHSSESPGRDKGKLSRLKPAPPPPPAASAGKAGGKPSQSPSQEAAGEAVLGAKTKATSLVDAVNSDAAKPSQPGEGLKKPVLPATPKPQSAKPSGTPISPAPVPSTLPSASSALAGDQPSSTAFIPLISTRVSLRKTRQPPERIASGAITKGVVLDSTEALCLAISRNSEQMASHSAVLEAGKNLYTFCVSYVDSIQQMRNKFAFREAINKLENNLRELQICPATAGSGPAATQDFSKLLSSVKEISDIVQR
UniProt P18508, sequence (whole entry, looked up): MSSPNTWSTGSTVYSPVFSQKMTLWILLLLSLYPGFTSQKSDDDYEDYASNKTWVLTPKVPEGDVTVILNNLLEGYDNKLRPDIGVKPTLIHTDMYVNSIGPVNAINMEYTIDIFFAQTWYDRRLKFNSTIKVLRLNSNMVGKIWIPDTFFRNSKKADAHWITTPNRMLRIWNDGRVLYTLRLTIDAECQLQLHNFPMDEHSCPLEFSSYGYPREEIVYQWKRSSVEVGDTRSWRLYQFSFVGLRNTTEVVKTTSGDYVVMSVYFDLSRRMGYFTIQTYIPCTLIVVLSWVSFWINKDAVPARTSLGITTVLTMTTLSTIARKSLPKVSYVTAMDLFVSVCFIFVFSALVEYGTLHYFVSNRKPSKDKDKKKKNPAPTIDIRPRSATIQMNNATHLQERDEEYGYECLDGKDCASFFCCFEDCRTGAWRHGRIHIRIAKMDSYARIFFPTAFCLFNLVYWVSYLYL
UniProt P18089, sequence (whole entry, looked up): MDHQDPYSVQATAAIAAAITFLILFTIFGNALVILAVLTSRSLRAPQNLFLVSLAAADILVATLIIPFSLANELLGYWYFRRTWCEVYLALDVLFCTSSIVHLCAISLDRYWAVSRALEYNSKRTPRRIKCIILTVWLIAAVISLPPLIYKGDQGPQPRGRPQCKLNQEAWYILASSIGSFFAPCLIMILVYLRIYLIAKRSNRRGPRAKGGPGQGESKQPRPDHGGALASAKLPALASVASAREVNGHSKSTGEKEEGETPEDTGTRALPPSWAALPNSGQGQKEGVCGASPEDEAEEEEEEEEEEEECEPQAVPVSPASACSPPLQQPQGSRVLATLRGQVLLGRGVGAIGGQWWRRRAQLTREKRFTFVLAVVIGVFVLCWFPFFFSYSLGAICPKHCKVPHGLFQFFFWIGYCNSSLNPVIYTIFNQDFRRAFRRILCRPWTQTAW
UniProt P51531, sequence (whole entry, looked up): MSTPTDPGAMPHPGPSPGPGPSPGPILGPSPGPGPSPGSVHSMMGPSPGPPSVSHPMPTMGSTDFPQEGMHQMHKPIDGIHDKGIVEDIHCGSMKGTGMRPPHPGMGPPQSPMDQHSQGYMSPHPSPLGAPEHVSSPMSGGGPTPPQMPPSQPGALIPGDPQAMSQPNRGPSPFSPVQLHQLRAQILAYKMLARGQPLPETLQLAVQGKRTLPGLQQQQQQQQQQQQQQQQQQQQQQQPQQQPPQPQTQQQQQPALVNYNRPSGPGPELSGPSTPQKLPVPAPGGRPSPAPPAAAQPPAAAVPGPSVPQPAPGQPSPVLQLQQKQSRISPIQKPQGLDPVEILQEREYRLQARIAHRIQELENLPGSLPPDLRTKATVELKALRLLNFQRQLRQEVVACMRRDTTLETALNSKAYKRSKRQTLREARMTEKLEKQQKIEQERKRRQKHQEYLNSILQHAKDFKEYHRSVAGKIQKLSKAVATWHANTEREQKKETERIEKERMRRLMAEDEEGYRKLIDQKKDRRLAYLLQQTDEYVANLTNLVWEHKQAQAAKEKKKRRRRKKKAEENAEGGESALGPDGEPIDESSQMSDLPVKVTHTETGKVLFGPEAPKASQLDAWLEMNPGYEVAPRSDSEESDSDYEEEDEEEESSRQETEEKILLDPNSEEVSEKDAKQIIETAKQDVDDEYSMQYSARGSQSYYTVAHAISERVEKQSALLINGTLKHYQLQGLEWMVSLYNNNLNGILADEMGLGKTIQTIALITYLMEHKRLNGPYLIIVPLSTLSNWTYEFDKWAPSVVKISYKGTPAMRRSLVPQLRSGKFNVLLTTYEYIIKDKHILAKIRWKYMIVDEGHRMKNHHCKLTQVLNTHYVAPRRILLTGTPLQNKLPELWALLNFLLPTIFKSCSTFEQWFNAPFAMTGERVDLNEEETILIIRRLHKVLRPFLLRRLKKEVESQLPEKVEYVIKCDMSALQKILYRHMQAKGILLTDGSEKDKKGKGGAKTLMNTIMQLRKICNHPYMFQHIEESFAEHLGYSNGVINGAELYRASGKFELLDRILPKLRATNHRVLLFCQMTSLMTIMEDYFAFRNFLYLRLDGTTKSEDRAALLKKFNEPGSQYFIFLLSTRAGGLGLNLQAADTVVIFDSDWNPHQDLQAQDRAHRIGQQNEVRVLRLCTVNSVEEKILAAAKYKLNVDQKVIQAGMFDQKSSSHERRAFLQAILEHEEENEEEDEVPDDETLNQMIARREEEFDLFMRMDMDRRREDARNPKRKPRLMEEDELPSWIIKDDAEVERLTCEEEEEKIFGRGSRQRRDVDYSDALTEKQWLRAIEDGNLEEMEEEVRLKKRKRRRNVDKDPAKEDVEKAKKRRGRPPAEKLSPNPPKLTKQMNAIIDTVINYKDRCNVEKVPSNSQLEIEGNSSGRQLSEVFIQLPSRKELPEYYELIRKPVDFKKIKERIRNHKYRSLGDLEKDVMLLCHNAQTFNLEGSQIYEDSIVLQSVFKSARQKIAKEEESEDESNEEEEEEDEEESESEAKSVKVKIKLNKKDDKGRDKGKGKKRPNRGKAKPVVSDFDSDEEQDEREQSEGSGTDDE
UniProt P62813, sequence (whole entry, looked up): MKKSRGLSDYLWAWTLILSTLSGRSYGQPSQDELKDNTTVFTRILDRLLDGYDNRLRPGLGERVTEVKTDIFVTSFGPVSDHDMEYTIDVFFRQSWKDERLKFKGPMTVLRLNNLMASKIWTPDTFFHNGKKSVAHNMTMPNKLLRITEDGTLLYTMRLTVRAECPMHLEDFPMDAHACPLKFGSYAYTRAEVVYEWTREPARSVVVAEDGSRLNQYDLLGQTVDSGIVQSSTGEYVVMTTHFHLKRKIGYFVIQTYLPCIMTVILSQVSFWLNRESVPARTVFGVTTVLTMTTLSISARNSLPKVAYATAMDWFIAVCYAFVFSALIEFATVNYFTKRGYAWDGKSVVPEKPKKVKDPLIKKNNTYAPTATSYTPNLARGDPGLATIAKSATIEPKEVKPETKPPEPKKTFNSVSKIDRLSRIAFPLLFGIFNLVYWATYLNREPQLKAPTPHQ
UniProt Q15349, sequence (whole entry, unmodified, looked up): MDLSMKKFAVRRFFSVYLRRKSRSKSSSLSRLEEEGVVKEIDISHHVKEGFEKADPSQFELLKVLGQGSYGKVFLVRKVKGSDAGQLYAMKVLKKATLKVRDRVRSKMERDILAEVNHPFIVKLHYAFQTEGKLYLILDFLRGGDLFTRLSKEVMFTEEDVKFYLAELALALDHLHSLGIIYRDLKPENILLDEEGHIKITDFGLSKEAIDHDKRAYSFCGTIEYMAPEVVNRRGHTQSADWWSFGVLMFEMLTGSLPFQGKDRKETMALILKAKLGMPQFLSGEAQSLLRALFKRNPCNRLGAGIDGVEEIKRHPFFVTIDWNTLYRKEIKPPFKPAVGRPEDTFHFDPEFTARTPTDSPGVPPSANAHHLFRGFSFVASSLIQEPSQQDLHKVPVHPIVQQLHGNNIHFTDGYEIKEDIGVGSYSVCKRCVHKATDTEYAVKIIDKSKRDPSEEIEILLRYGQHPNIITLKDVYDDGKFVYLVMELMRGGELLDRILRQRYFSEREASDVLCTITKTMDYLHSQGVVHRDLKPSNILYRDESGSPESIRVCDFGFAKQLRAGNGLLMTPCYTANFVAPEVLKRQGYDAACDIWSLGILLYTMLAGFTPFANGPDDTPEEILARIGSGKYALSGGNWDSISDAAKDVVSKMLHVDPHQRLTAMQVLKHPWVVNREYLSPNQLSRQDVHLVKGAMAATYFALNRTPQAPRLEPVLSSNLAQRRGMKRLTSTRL

SMILES = CN(C)c1nccc(-c2cnn3ncccc23)n1; target = Tyrosine-protein kinase ABL1 (ABL1, Homo sapiens, UniProt P00519, F317L); test = KINOMEscan; conditions = 1 µM; how to read = baseline: control; quantity = remaining binding; value = 56% and 100%
SMILES = c1ccc2c(c1)-c1cccc3c1c-2cc1ccccc13; target = Aryl hydrocarbon receptor; test = reporter gene, agonist, luciferase reporter; test system = ZF-4; conditions = 4.572 µM; how to read = baseline: vehicle control; quantity = fold change; value = 2.63
SMILES = O=c1nc(SCc2cc(F)cc(C(F)(F)F)c2)nc(SCc2ccc3sccc3c2)[nH]1; target = DNA topoisomerase 2-alpha (TOP2A, Homo sapiens, UniProt P11388); test = DNA cleavage; conditions = 15.6 µM; quantity = mean linear DNA; value = 2.03%
SMILES = CC[C@@H]1[C@H](F)C(=O)N[C@@H]1COc1nccc2cc(C(N)=O)c(OC)cc12; target = Serine/threonine-protein kinase 16 (STK16, Homo sapiens, UniProt O75716); test = ATP-site probe binding, ActivX profiling; test system = THP-1 cell lysate; conditions = 0.04 mM, Lys1 site; quantity = inhibition; value = 27.8%
SMILES = CCCCCCCCCCCCC/C=C/[C@@H](O)[C@H](CO)NC(=O)CCCCCCCCCCCCC; target = Protein SET (SET, Homo sapiens, UniProt Q01105); test = lipid binding, GFP pull-down LC-MS/MS; test system = A549 overexpressing GFP-tagged protein; conditions = ER-targeted construct, unit not given; how to read = baseline: vector-transfected cells; quantity = bound endogenous lipid; value = 0.7
SMILES = NCCCS(=O)(=O)O; target = Sodium- and chloride-dependent taurine transporter (SLC6A6, Homo sapiens, UniProt P31641, G62A); test = binding, microscale thermophoresis; conditions = 125 µM, room temperature, added: 50 nM labelled protein; how to read = higher = more binding; quantity = normalised MST signal; value = -0.0218
SMILES = O=C(COP(=O)(O)O)[C@@H](O)[C@H](O)[C@H](O)COP(=O)(O)O; target = Phosphoglycerate mutase 1 (Homo sapiens, UniProt P18669); test = thermal proteome profiling, item: PGAM1; test system = HepG2 cell lysate; conditions = concentration not given, 57 over 37 °C; how to read = baseline: compound over control; quantity = thermal stability ratio; value = 1.94 and 1.78 and 2.11
SMILES = CC1(C)NC(=O)c2[nH]c3c(Cl)c(Cl)ccc3c2C1C#N (stereo not drawn); target = Ribosomal protein S6 kinase alpha-2 (RPS6KA2, Homo sapiens, UniProt Q15349); test = thermal shift; conditions = 10 µM, 2 µM protein; how to read = higher = stronger binding; quantity = ΔTm; value = 0.9 °C
SMILES = Nc1ccc2ccc3cccc4ccc1c2c34; target = Aryl hydrocarbon receptor; test = reporter gene, agonist, luciferase reporter; test system = ZF-4; conditions = 4.572 µM; how to read = baseline: vehicle control; quantity = fold change; value = 1.21
SMILES = CC[C@H](C)[C@H](NC(=O)[C@H](CCCNC(=N)N)NC(=O)[C@H](Cc1c[nH]cn1)NC(=O)[C@H](CCCNC(=N)N)NC(=O)[C@H](CC(=O)O)NC(=O)[C@@H](N)CC(=O)O)C(=O)N[C@@H](CCC(=O)O)C(=O)N[C@@H](CCC(=O)O)C(=O)N[C@@H](CCCCN)C(=O)N[C@@H](CCCNC(=N)N)C(=O)N[C@@H](CCCCN)C(=O)N[C@@H](CCCNC(=N)N)C(=O)N[C@H](C(=O)N[C@@H](Cc1ccc(O)cc1)C(=O)N[C@@H](CCC(=O)O)C(=O)N[C@H](C(=O)N[C@@H](Cc1ccccc1)C(=O)N[C@@H](CCCCN)C(=O)N[C@@H](CO)C(=O)N[C@H](C(=O)N[C@@H](CCSC)C(=O)N[C@@H](CCCCN)C(=O)N[C@@H](CCCCN)C(=O)N[C@@H](CO)C(=O)N1CCC[C@H]1C(=O)N[C@@H](Cc1ccccc1)C(=O)N[C@@H](CC(N)=O)C(=O)NCC(=O)N1CCC[C@H]1C(=O)O)[C@@H](C)CC)[C@@H](C)O)[C@@H](C)O; target = NF-kappa-B inhibitor alpha (Homo sapiens, UniProt P25963); test = binding, ITC; conditions = 293 K, 150 mM NaCl; quantity = ΔG; value = -8.2 ± 0.3 kcal/mol
SMILES = Nc1nnc(-c2ccccc2O)cc1N1CCN(Cc2ccc(OCCOCCNc3cccc4c3C(=O)N(C3CCC(=O)NC3=O)C4=O)c(F)c2)CC1 (stereo not drawn); target = SWI/SNF-related matrix-associated actin-dependent regulator of chromatin subfamily A member 2 (SMARCA2, Homo sapiens, UniProt P51531); test = degrader, immunoblot; test system = NCI-H1975; conditions = 96 h; quantity = Dmax; value = 95%
SMILES = NC[C@H](O)c1ccc(O)c(O)c1; target = Alpha-2B adrenergic receptor (ADRA2B, Homo sapiens, UniProt P18089); test = AP-TGFα shedding; test system = HEK293A; quantity = EC80; value = 12.9 nM
SMILES = Cc1ccc(NC(=O)c2ccccc2C#Cc2ccc(C#N)cc2N(C)C)cc1; target = GABA-A receptor; alpha-1/beta-2/gamma-2 (Rattus norvegicus, UniProt P18508+P62813+P63138); test = membrane potential, agonist, QP-DHM primary screen; test system = HEK293 expressing GABAA; conditions = 10 µM; how to read = direction not given; quantity = normalized score; value = 0.283
SMILES = O=C(O)c1ccc(Nc2ncc3c(n2)-c2ccc(Cl)cc2C(c2c(F)cccc2F)=NC3)cc1; target = CK1γ1(h); test = kinase activity; conditions = 1 µM; quantity = remaining activity; value = 92%
SMILES = Cc1cccc2ccc3ccccc3c12; target = Aryl hydrocarbon receptor (AHR, Homo sapiens, UniProt P35869); test = reporter gene, agonist, yeast LacZ reporter; test system = Saccharomyces cerevisiae; quantity = maximum response; value = 142 LacZ units

For quick reference, copied from above:
SMILES = c1ccc2c(c1)-c1cccc3c1c-2cc1ccccc13; target = Aryl hydrocarbon receptor; test = reporter gene, agonist, luciferase reporter; test system = ZF-4; conditions = 4.572 µM; how to read = baseline: vehicle control; quantity = fold change; value = 2.63
SMILES = O=c1nc(SCc2cc(F)cc(C(F)(F)F)c2)nc(SCc2ccc3sccc3c2)[nH]1; target = DNA topoisomerase 2-alpha (TOP2A, Homo sapiens, UniProt P11388); test = DNA cleavage; conditions = 15.6 µM; quantity = mean linear DNA; value = 2.03%
